Experimental data pooled from the literature.
Numbered parts are unrelated; each lists some results of a single study. “And” joins repeats or separate records; there may be more than shown.

Set 1
Target: Aurora kinase A (AURKA, Homo sapiens, UniProt O14965)
Sequence of UniProt O14965 (whole entry, looked up): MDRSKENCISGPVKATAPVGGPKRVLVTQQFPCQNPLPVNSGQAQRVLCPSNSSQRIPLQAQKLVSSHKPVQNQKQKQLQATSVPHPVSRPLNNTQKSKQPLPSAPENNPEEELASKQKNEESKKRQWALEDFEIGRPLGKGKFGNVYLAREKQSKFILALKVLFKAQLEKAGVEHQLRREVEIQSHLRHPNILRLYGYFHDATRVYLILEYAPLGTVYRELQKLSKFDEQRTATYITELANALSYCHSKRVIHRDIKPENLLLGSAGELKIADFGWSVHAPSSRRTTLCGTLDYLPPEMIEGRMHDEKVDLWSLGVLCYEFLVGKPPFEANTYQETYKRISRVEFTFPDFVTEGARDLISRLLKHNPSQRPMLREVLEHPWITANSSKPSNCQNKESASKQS
Observed: enzyme activity
Mode: inhibitor
Tested at: 0.5 µM
Relative to: control
| SMILES | remaining activity [%] |
| --- | --- |
| CC(C)N(CCC(=O)c1ccc2ccccc2c1)Cc1ccccc1 | 104 |
| CC(C)(C)c1nc2c3cc[nH]c(=O)c3c3cc(F)ccc3c2[nH]1 | 22.3 |
| c1ccc(-c2n[nH]c3c2oc2ccccc23)cc1 | 103 |
| CN(C)S(=O)(=O)c1ccc2c(c1)/C(=C/c1cc3c([nH]1)CCCC3)C(=O)N2 | 16.1 |
| c1ccc2c(-c3ccncc3)c[nH]c2c1 | 78 |
| N#CC(c1ccnc(NCCc2cccnc2)n1)c1nc2ccccc2s1 (stereo not drawn) | 83.8 |
| N#Cc1cnc2cnc(NCc3cccnc3)cc2c1Nc1ccc(F)c(Cl)c1 | 98.1 |
| O=C1c2ccccc2-c2nc3nnnn3nc21 | 71.4 |
| O=C1NC(=O)/C(=C/c2ccc3c(c2)OC(F)(F)O3)S1 | 92.4 |
| Cc1ccc(S(=O)(=O)/C=C/C#N)cc1 | 111 |
| COc1ccc(COc2ccc(Cc3cnc(N)nc3N)cc2OC)cc1 | 105 |
| O=C(c1ccccc1)c1ccc(N2CCOCC2)cc1O | 108 |
| O=Nc1c(-c2c(O)[nH]c3cc(Br)ccc23)[nH]c2ccccc12 | 17.1 |
| CN1CCN(c2ccc3nc(-c4c(N)c5c(F)cccc5[nH]c4=O)[nH]c3c2)CC1 | 60.6 |
| NC(=O)c1cccc(-c2cc(Nc3ccc(OC(F)(F)F)cc3)ncn2)c1 | 107 |

Set 2
Method: PRP chromatography
Setting: linear fit, 1 mL
| Compound | logD 1,9-decadiene/water [log units] |
| --- | --- |
| CC(C)C[C@@H]1NC(=O)[C@H](CC(C)C)NC(=O)[C@H](CC(C)C)NC(=O)[C@H](CC(C)C)NC(=O)[C@@H](Cc2cscn2)NC(=O)[C@@H](CC(C)C)NC(=O)[C@H](C)NC1=O | -0.0319 |
| CC(C)C[C@@H]1NC(=O)[C@H](CCC(=O)N2CCCC2)NC(=O)[C@H](CC(C)C)NC(=O)[C@@H](Cc2cscn2)NC(=O)[C@H](CC(C)C)NC(=O)[C@@H](CC(C)C)NC(=O)[C@H](CC(C)C)NC1=O | -0.0786 |
| CC(C)C[C@@H]1NC(=O)[C@@H](C)NC(=O)[C@@H](CC(C)C)NC(=O)[C@@H](CC(C)C)NC(=O)[C@H](C)NC(=O)[C@H](CC(C)C)NC(=O)[C@@H](CC(C)C)NC1=O | -0.0786 |
| CC(C)C[C@@H]1NC(=O)[C@H](CCC(=O)N2CCCC2)NC(=O)[C@@H](C(C)C)NC(=O)[C@H](C)NC(=O)[C@H](CC(C)C)NC(=O)[C@@H](CC(C)C)NC(=O)[C@H](CC(C)C)NC1=O | -0.687 |

Set 3
Cell line: HaCaT
Tested at: 100 µM
Time: 36 h
| SMILES | viability [%] |
| --- | --- |
| C[C@@H]1O[C@@H]1P(=O)(O)O | 97.7 |
| Clc1ccc(C(c2ccccc2Cl)C(Cl)Cl)cc1 (stereo not drawn) | 6.28 |
| Cc1nc(C)c(C)nc1C | 95.2 |
| CCCSc1nc(N[C@@H]2C[C@H]2c2ccc(F)c(F)c2)c2nnn([C@@H]3C[C@H](OCCO)[C@@H](O)[C@H]3O)c2n1 | 4.83 |
| CCN[C@H]1CN(CCCOC)S(=O)(=O)c2sc(S(N)(=O)=O)cc21 | 75.2 |
| Cc1cn([C@H]2C[C@H](N=[N+]=[N-])[C@@H](CO)O2)c(=O)[nH]c1=O | 61.1 |

Set 4
Cell line: normal organoid sample D
Method: CellTiter-Glo
Species: human
Medium: normal-adjacent epithelium
Tested at: 1 µM
Relative to: DMSO
| SMILES | viability |
| --- | --- |
| C[C@@H](NC(=O)Nc1cc2[nH]ncc2c(CO)n1)c1ccccc1 | 108% and 105% |
| Cc1nc(C2CCN(C(=O)c3ccc(OC(F)(F)F)cc3N)CC2)c2ncc(N3CCN(C)CC3)cc2n1 | 95.8% and 75.4% |
| C[C@H](c1cccc(C#N)c1)n1cc(Cl)cc(C(N)=O)c1=N | 131% and 116% |
| CCC(=O)N[C@@H]1CC[C@H](C(=O)N(C)c2ccc(-c3nc4ccccc4o3)cc2)C1 | 82.1% and 96.9% |

Other studies, line by line
| Structure (SMILES) | target | quantity | value |
| --- | --- | --- | --- |
| CCN1CCN(Cc2ccc(NC(=O)Nc3ccc(Oc4cc(NC)ncn4)cc3)cc2C(F)(F)F)CC1 | Proto-oncogene tyrosine-protein kinase Src (SRC, Homo sapiens, UniProt P12931) | IC50 | > 3000 nM |

For quick reference, copied from above (set 1):
| SMILES | remaining activity [%] |
| --- | --- |
| Cc1ccc(S(=O)(=O)/C=C/C#N)cc1 | 111 |
| COc1ccc(COc2ccc(Cc3cnc(N)nc3N)cc2OC)cc1 | 105 |
